Results from different studies.
Every numbered part comes from another study and shows a few of its results, in no order. Changes are numbered by the printed parent chain.

Series 1
Target: CREB3L3, bZIP domain (human)
Method: DHFR protein complementation
Medium: yeast
Setting: single substitutions, most at no-binding floor
Reference: wild-type JUN-FOS pair
Direction: higher = stronger binding
Starting sequence: JUN, bZIP domain (human); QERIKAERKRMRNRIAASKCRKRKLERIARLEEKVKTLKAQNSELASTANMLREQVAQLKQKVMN; partner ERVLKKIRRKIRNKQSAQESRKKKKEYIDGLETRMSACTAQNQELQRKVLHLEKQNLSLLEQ
Change	binding fitness
S43N	-1.44 natural log
S47T	-1.36 natural log
E32G	-1.42 natural log
S47W	-1.52 natural log
L45N	-1.5 natural log
A57V	-1.25 natural log
T37E	-1.47 natural log
I28D	-1.19 natural log
T48M	-1.6 natural log
T48H	-1.5 natural log
A29F	-1.51 natural log
A29K	-1.46 natural log
A46M	-1.38 natural log
R30Q	-1.51 natural log
L52V	-1.4 natural log
K39Q	-1.49 natural log
A40Q	-1.03 natural log
L59H	-1.52 natural log
K39W	-1.52 natural log
Q41M	-1.55 natural log
R53T	-1.43 natural log

Series 2
Target: Histone acetyltransferase KAT6A, winged helix 2, GST fusion (KAT6A, Homo sapiens, UniProt Q92794, residues 85-181)
Method: protein binding microarray
Form: double-stranded DNA, one strand shown
Medium: in vitro
Concentration: not given
Setting: 8-mer, flanks averaged, mean of 2 arrays, mostly near background
Reference: not given
Direction: higher = stronger binding
Construct (chain): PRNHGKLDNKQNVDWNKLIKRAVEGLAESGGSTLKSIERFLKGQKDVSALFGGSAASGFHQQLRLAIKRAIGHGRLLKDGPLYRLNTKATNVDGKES
Oligonucleotide	E-score
TATAGACA	0.129
ACTGCGCG	0.0432
ACCACACA	-0.118
CCCAACGG	0.072
AAGTTCTA	-0.0826
ACTACAAG	-0.0276
ACAAATCC	-0.0296
CAGATATC	0.0726
CACAGGAG	0.0311
CCTGTCAC	-0.0409
CAAGGAAA	-0.0652
ATAATGAT	0.0889
CGTGAGAC	-0.00582
GGCAGTAA	-0.0541
CGCTAGCA	0.0329
ACCCAAGC	-0.128

Series 3
Target: Sal-like protein 4, full length isoform A (SALL4, Homo sapiens, UniProt Q9UJQ4, residues 1-1053)
Sequence of UniProt Q9UJQ4 (whole entry, looked up): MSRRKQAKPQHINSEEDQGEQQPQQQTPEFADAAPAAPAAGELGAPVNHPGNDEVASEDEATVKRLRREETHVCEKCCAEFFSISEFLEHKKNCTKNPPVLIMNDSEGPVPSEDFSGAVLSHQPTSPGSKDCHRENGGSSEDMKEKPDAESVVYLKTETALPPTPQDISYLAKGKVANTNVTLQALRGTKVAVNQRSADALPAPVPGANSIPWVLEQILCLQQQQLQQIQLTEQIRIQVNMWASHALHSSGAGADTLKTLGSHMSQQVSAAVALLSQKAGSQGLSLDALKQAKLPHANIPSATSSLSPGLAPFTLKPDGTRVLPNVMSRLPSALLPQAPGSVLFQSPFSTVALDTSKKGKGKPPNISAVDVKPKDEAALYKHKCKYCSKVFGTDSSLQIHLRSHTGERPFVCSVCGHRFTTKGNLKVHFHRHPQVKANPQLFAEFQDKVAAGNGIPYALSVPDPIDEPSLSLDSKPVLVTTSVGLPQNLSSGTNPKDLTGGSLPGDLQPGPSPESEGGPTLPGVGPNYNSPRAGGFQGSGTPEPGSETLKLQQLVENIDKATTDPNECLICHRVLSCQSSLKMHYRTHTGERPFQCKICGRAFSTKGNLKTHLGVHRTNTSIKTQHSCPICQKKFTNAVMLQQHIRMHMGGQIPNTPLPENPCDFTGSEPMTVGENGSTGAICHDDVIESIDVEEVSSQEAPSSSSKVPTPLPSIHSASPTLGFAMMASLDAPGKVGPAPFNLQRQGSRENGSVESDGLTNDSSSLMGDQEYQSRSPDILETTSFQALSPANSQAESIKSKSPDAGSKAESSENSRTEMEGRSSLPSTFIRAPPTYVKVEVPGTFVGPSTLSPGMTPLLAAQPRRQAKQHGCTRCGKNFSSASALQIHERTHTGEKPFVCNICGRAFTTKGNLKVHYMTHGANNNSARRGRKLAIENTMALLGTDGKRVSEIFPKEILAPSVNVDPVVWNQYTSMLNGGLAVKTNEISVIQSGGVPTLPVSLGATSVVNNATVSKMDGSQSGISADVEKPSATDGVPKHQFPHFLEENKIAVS
Method: universal PBM
Form: double-stranded DNA, one strand shown
Medium: in vitro
Concentration: 600 nM
Setting: 8-mer, flanks averaged, mean of replicates
Direction: higher = stronger binding
Oligonucleotide	E-score
AGACGTCT	-0.0727
ATCTGAAC	0.0854
GAGTAATC	0.153
AATGCATA	0.226
AATGGCAG	0.0396
CTGTCGTA	0.0686
GTATGCAA	0.123
CCTACTTA	0.115
CAACGTGG	-0.24
TTTGCAAA	0.204
AATTCTTA	0.21
TGAGCTCA	-0.103
AGGACCGG	-0.403
ACCCATAG	-0.175
GTAGCAAC	0.0448
GGTCTGGA	-0.0789

Series 4
Target: ABI1, truncated, D143A, DHFR fusion (Arabidopsis thaliana)
Method: DHFR PCA, deep sequencing
Medium: yeast
Setting: methotrexate growth selection, single substitutions
With: (+)-ABA 2500 µM
Reference: wild-type fitted maximum
Direction: higher = stronger binding
Starting sequence: PYL1, truncated, DHFR fusion (Arabidopsis thaliana); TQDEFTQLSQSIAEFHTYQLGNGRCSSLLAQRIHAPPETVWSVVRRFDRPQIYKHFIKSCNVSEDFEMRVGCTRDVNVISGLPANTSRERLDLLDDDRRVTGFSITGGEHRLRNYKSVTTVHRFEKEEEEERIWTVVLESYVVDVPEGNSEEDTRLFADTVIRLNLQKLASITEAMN
Change	relative binding score
R163A	84.6%
D48A	86.3%
V44D	-4.33%
I57K	-1.08%
P37L	95.8%
K168V	94.5%
R111P	69%
R113N	105%
V43P	26.3%
K126N	102%
V136D	82.7%
T1P	103%
Q7D	104%
I52Q	91.6%
E64W	88.1%
H55V	89.3%

Series 5
Target: CEP164, C-terminal peptide (human)
Method: DHFR complementation, deep sequencing
Medium: yeast
Setting: single substitutions, model-inferred values
Reference: wild type
Direction: higher = weaker binding
Starting sequence: PDZK1, PDZ domain 2 (human); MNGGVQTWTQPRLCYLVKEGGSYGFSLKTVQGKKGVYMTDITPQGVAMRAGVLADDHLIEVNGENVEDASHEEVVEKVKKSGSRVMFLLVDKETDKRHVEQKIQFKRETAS; partner HNRVKVYRF
Change	binding free energy change [kcal/mol]
D95N	-0.094
G4S	0.00911
V85F	2.14
V5M	-0.00744
P43N	0.178
L53K	-0.146
G63F	0.393
S83Q	-0.00753
K106W	-0.248
Y15I	0.0163
W8Q	-0.167
K79C	0.313
Q44V	0.311
K92S	-0.0157
Y37E	1.63
E72D	0.382
M1Q	-0.225
T7A	-0.0272
E108R	-0.514
H98L	-0.0415
L88N	0.455
Q6H	-0.0549
Q6V	-0.0341
E73F	0.0422
Q104S	-0.169

Series 6
Target: CCNA2, cyclin fold, Cln2 fusion (human)
Method: yeast growth competition, sequencing
Medium: yeast
Setting: strong parent motif
Reference: not given
Direction: higher = stronger binding
Starting sequence: CDC6 docking peptide (human); TLKGRRLVFDNQL; partner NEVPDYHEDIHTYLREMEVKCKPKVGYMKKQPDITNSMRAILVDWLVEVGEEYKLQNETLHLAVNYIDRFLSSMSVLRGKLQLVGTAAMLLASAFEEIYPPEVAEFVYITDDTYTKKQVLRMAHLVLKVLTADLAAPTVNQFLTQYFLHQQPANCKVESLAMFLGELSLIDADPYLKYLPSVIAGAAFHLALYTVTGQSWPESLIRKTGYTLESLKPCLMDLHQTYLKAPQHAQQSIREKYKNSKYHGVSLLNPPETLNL
Change	normalised enrichment score
TLKGRRLVFDNQA [L13A]	3.59
TLKGRRIVFDNQL [L7I]	1.6
TLEGRRLVFDNQL [K3E]	0.556
TLKGRRLVFDNQM [L13M]	2.86
TLKGRRLHFDNQL [V8H]	1.81
TLKGTRLVFDNQL [R5T]	1.58
TLKGRRLVYDNQL [F9Y]	1.29
TLKGRRLVFDNYL [Q12Y]	3.48
TLKGRRLWFDNQL [V8W]	2.36
TLKGGRLVFDNQL [R5G]	0.697
TLKGRRLVVDNQL [F9V]	-0.462
TLSGRRLVFDNQL [K3S]	1.76
TLKGCRLVFDNQL [R5C]	0.109
TLKGRRLVQDNQL [F9Q]	0.753
TLKGRRLVFDNQF [L13F]	3.17
TDKGRRLVFDNQL [L2D]	0.843
TLKGRRQVFDNQL [L7Q]	1.54
TLKGRTLVFDNQL [R6T]	0.94
SLKGRRLVFDNQL [T1S]	2.49
TLKERRLVFDNQL [G4E]	-0.425
KLKGRRLVFDNQL [T1K]	4.83
TLKGLRLVFDNQL [R5L]	1.05
GLKGRRLVFDNQL [T1G]	3.4
TLKGRMLVFDNQL [R6M]	2.37

Series 7
Target: Fragile X messenger ribonucleoprotein 1, C-terminal low-complexity region (Fmr1, Mus musculus, UniProt P35922)
Method: RNA Bind-n-Seq
Form: RNA
Medium: in vitro
Concentration: 200 nM
Setting: whole 134-nt RNA, ends assumed
With: 150 mM LiCl
Reference: input library
Direction: higher = stronger binding
All molecules: 7-deaza-guanosine replaces G
Shared flanks, not repeated: GGGAGUUCUACAGUCCGACGAUC … UGGAAUUCUCGGGUGUCAAGG
Oligonucleotide	log2 enrichment
UAACUUUAGAGGAGGAUCUGAUGGAUAUAGCAGUGGACGUGGAUUUGGGGAUGGCUAUAAUGGGUAUGGAGGAGGACCUGGAGGUGGCAA	0.48
UAACUUUAGAGGAGGAUCUGAUGGAUAUGGCAGUGGACGUGGAUGUGGGGAUGGCUAUAAUGGGUAUGGAGGAGGACCUGGAGGUGGCAA	0.907
UAACUUUAGAGGAGGAUCUGAUGGAUAUGGCAGUGGACGUGGAUUUGGGGAUGUCUAUAAUGGGUAUGGAGGAGGACCUGGAGGUGGCAA	0.225
UCAAGUCCUGUGCUACACAUCGUAUGUACCGAAUCGGUUUGGAAAAAAAGGUGGAAAGUAUUAUGUUACGCCGUUCGGAUCUGCACUUCC	-1.15
GCAGGAAGUAAAAACAAAUGGAAAAAAUUCGGAUAGUGGCAGGGGUGGGGGUUGCUAAGGAAAGGGUGGGAUGGGAGUGGGUAAAGAGUU	1.11
CACAGACAACACGCACCCACACAGACACAGAGGGAAGGGGUUGGGAUGGGGACAGGGUGCACAGCAGGGCGGGGUAGGACCAAAGCCCCU	-0.125
AAGUCCUGUGCUACACAUCGUAUGUACCGAAUCAAAUUUAAAUUUUUAAAUUUAAAAAAGUAUUAUGUUACGCCGUUCGGAUCUGCACUU	-3.37
AGUCCUGUGCUACACAUCGUAUGUACCGAAUCGGGUUUUUUUGGGAAAAAGGGAGGGAAAGUAUUAUGUUACGCCGUUCGGAUCUGCACU	-2.13
UGGCCCUAGUGGCAUGCGGGGAGGAAGAGGUGGCCUCAUGGAUCGUGGUGGUCCCGGUGGAAUGUUCAGAGGUGGCCGUGGUGGAGACAG	0.0404
UAACUUUAGAGGAAGAUCUGAUGGAUAUGGCAGUGGACGUGGAUUUGGGGAUGGCUAUAAUGGGUAUGGAGGAGGACCUGGAGGUGGCAA	0.501
UGGUGGACAGAAGGCACUGCAGCCUGAAAUGGCAGAGUCUGGUGCUGACGAUCCGCGAGAAGAUCAAUGCUGCCAUCCAGGACAUGCCAG	-2.41

Mixed results
Molecule	target	test	test system	setting	scale	measurement	value
PhoQ, residues 284 288 289 292 302 303 SIHMAM	PhoP, residues 12 14 15 18 19 YHFSH (Escherichia coli, UniProt P23836)	Sort-seq, item: YFP reporter	E. coli	PhoQ-PhoP variant library, with: 10 µM Mg2+	reference: high Mg2+ state, higher = stronger signaling	fold induction	1.5

For quick reference, copied from above (series 6):
Change	normalised enrichment score
TLKGRTLVFDNQL [R6T]	0.94
TLSGRRLVFDNQL [K3S]	1.76
TLKERRLVFDNQL [G4E]	-0.425
SLKGRRLVFDNQL [T1S]	2.49
TLKGRRLVFDNQA [L13A]	3.59
TDKGRRLVFDNQL [L2D]	0.843
TLKGRMLVFDNQL [R6M]	2.37
TLKGRRLVYDNQL [F9Y]	1.29
KLKGRRLVFDNQL [T1K]	4.83
TLKGRRLVFDNQM [L13M]	2.86
